Published values from different studies.
Parts stem from different laboratories: compare values within a part only.
Sequence of UniProt P10721 (whole entry, unmodified, looked up): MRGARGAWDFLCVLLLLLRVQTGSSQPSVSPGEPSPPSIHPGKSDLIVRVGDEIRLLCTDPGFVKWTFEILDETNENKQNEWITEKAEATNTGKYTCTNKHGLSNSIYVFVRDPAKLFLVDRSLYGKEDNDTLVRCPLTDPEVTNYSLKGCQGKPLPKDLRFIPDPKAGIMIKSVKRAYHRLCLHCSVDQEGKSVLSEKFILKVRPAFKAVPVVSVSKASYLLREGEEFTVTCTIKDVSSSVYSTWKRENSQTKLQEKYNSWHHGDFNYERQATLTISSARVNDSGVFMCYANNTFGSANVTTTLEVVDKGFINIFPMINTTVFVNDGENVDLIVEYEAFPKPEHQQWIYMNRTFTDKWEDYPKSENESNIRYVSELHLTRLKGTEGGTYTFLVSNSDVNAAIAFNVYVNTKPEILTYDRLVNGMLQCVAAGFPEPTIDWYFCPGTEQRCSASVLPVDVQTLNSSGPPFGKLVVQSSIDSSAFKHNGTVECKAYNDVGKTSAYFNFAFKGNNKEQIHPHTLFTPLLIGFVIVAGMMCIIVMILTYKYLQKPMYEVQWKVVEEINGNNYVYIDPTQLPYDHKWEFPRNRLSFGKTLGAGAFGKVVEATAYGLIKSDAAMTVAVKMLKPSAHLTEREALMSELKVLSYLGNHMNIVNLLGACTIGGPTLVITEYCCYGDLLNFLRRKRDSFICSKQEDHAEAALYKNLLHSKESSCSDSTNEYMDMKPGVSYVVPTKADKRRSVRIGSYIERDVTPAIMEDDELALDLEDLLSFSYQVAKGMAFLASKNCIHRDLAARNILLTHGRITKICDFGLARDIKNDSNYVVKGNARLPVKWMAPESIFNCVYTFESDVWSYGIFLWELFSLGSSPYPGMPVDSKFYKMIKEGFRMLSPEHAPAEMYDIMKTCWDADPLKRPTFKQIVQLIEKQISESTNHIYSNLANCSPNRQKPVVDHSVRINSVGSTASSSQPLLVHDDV
Sequence of UniProt Q8IYT8 (whole entry, looked up): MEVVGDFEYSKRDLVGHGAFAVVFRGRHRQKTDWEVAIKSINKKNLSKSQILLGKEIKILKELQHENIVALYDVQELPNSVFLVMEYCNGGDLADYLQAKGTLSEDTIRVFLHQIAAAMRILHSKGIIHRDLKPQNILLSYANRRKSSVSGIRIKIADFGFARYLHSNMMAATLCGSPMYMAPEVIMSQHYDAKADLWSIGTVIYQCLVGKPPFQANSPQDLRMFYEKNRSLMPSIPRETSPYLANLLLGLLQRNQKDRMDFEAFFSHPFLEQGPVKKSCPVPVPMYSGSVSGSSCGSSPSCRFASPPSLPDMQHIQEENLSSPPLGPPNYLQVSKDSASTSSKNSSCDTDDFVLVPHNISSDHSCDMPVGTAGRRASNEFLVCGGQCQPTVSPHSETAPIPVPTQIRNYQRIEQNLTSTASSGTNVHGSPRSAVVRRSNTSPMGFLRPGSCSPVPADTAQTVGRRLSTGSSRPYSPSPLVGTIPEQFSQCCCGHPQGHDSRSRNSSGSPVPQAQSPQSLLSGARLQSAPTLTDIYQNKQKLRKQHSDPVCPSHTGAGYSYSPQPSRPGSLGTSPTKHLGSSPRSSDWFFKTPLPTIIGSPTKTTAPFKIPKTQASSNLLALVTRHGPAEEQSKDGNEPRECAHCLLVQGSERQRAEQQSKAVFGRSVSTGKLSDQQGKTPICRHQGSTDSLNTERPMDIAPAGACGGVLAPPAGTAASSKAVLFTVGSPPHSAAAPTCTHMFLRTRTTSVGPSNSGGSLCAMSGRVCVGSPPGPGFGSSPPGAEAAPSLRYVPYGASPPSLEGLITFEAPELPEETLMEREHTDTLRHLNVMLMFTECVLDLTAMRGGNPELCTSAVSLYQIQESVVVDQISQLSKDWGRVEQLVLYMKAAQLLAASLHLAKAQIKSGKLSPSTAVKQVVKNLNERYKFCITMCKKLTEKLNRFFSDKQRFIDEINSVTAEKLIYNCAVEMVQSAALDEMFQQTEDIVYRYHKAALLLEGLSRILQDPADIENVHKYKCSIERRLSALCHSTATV
Sequence of UniProt Q9BRS2 (whole entry, looked up): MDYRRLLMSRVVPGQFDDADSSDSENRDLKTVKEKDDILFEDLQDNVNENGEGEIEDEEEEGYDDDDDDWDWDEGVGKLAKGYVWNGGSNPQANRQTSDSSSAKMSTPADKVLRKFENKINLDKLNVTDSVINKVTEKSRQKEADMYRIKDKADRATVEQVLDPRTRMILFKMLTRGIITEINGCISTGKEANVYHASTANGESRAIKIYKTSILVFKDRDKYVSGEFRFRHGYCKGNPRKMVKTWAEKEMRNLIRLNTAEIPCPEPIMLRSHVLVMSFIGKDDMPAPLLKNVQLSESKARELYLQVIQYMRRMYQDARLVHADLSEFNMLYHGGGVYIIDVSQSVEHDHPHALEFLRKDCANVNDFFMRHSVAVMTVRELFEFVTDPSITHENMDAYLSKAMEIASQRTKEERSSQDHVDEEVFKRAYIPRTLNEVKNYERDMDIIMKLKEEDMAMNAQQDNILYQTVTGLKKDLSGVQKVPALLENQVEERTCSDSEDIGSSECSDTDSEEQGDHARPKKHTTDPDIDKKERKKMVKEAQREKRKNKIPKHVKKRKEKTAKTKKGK
Sequence of UniProt O75676 (whole entry, looked up): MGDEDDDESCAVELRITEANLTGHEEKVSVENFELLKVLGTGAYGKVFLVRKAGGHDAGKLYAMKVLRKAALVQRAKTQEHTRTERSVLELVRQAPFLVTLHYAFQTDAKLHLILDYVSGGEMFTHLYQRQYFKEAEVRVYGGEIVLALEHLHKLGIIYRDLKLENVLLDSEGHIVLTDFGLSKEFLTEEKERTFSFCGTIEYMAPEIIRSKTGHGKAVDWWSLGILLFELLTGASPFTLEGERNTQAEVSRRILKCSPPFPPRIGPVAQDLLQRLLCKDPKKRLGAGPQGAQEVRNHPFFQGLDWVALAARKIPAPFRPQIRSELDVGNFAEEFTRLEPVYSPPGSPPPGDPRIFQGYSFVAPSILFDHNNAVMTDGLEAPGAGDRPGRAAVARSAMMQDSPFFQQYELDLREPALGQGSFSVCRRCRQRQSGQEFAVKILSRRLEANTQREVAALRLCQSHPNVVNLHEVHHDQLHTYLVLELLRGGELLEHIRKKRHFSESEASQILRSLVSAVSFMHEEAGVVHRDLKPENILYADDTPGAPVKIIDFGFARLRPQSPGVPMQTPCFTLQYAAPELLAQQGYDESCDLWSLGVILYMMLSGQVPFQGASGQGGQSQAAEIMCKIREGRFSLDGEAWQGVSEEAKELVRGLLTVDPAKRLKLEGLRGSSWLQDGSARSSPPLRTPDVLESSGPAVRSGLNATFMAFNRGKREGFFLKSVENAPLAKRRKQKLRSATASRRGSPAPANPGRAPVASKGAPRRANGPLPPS
Sequence of UniProt Q16620 (whole entry, looked up): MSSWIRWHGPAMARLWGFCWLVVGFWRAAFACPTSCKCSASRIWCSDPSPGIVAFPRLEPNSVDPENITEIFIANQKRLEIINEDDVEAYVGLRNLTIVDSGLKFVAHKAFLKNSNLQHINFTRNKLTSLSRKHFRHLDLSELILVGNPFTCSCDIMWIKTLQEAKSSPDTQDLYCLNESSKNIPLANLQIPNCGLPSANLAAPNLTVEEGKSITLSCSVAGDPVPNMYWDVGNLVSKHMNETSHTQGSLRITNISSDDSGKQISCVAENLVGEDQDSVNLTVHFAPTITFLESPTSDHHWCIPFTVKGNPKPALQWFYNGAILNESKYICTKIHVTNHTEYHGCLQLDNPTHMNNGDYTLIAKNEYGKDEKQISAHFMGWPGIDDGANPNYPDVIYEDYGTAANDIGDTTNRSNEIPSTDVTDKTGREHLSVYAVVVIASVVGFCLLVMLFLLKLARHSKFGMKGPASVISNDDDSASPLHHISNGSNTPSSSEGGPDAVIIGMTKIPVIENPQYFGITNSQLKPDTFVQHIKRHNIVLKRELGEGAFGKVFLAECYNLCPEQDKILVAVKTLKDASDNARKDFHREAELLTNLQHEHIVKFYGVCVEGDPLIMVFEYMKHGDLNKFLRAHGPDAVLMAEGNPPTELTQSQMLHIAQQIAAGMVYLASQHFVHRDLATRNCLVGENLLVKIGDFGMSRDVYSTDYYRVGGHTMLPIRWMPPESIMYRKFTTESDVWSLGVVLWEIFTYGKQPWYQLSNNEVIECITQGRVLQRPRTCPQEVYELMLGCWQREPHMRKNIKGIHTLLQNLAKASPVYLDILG

Block 1
Target: Cyclin-dependent kinase 3, with cyclin E (CDK3, Homo sapiens, UniProt Q00526)
Sequence of UniProt Q00526 (whole entry, looked up): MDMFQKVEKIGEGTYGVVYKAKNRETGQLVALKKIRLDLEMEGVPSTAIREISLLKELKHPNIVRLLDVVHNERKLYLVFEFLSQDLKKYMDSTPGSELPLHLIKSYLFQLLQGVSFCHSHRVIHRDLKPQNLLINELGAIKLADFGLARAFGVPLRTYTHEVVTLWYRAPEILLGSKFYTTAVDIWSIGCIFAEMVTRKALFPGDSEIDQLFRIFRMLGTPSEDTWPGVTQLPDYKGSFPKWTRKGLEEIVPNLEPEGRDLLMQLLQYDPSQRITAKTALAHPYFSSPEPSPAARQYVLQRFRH
Effect on: enzyme activity
Mode: inhibitor
Tested at: 0.5 µM
Baseline: control
Structure (SMILES)	remaining activity [%]
NCCNc1ncc(C(N)=O)c(Nc2cccc(C(F)(F)F)c2)n1	95.3
COc1cc2nccc(Oc3ccc(NC(=S)NC(=O)c4ccccc4C)cc3)c2cc1OC	86.6
COc1ccc(C(=O)Nc2sc3c(c2C(N)=O)CCCC3)cc1OC	104
CCOC(=O)c1c(C)[nH]c(/C=C2\C(=O)Nc3ccccc32)c1C	94
Cc1cccc(-c2[nH]c(C(C)(C)C)nc2-c2ccc3c(c2)OCO3)n1	97.6
O=C1NC(=O)C(c2cn(CCCO)c3ncccc23)=C1c1cnccn1	89.4
Nc1[nH]nc2nc3ccccc3nc12	93.1
Cc1ccc(NC(=O)c2ccc(CN3CCN(C)CC3)cc2)cc1Nc1nc(-c2cccnc2)cs1	90.2
Cc1ccc(Nc2nccc(N(C)c3ccc4c(C)n(C)nc4c3)n2)cc1S(N)(=O)=O	93.5
Cc1nc(-c2ccccc2)c(-c2ccncc2)o1	98.1
O=C(Nc1cccc(Nc2cc(Nc3cccc(C(F)(F)F)c3)ncn2)c1)C1CC1	94.8
O=C(O)c1ccc2c3c1cccc3c(=O)n1c3ccccc3nc21	97.9
C#Cc1cccc(Nc2ncnc3cc(OCCOC)c(OCCOC)cc23)c1	95.6
CN(C)c1ccc(C=C2C(=O)Nc3ccccc32)cc1	98.7
COc1cc2ncnc(Nc3ccc(Oc4ccccc4)cc3)c2cc1OC	98.5
CC(C)[C@H](CO)Nc1nc(Nc2cc(N)cc(Cl)c2)c2ncn(C(C)C)c2n1	31.9

Block 2
Target: RING finger protein unkempt homolog, zinc fingers 1-6, GST-SBP tag (UNK, Homo sapiens, UniProt Q9C0B0, residues 30-357)
Sequence of UniProt Q9C0B0 (30-357, looked up): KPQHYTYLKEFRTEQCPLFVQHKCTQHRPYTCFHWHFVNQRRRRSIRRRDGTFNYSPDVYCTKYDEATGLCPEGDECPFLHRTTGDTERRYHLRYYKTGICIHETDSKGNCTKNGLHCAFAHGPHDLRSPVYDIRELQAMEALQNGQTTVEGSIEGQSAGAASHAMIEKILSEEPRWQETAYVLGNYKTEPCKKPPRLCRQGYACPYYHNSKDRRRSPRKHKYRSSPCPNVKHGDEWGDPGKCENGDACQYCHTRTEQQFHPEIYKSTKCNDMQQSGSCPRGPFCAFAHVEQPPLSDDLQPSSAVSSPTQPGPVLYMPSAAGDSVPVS
Technique: RNA Bind-n-Seq
Molecule type: RNA
Sample: in vitro
Tested at: not given
Notes: RNA with constant flanks, human and mouse sites, ends assumed
Baseline: input RNA pool
Reading: higher = stronger binding
All sequences stand within: GGGAGUUCUACAGUCCGACGAUC … CAACAGAGGAUUGAGCAUCA
Oligonucleotide	bound/input enrichment
AGCUUGCCCAGUUGACCCGAAAAAUAGGACUUUUUAGAAUUGCAUUGCCACUUCUAAAAUCCUAGCAAUACUUAGAAUAACACAUCAGUGAGAUAAAUUUUACUCAAUUAUUUUACAAAC	9.24 ratio
GAUAGAAGUAUAUGGCCCUUGAUAAGAAUCUAUCGGGGUGGCUUUCUUCUGAUUGAAUUCCUUUUUCUACUGGGCAUCAACACGUAUGGUUGGAGACAGGCUGGAGUAAACCAUGUACUC	0.276 ratio
GAAAAACUCACAAUCUCAGAAGAGACUCUGGCCAAUAAUACUUGGUCUUUAAUGUUAAAAGAAGUUCUUUCUUCAAUCUUGAAGGUUCCUGAAGGAUUUUUUUCUGGACUCAUACUCCUU	0.122 ratio
AGGAAACAGAUCAAUAAUAUAUUUUAUAGGUUUAUCUAUGAGACAGAGCAUCACAAUGGCAUAGCGGAGUUACUGGAGAUCCUGGGAAGUAUAAUUAAUGGAUUUGCCUUACCACUGAAG	1.22 ratio
GGCUAUACAUCUGCUAAUUUUUCUGGGAGAAUGCCAUGCAUUGAGGUUGGCGAUAGUAUUGUUCACAAAGCCAGAGAGACCUUGGAACGAGCUAUUAAACUGGUGAAUGAUACCAAGAAA	0.208 ratio
CCUGUUCCAUUUCCUUUGUUCAGAGGGUUGGACAUGAGUUUAGAUAAGUAUCUUACUCUGUUCCUCCUUUCGAAGUCUCUCUCUCUCUCUCUUUCUUUCUCUCUCUCUCUGUUCCUUCUC	0.381 ratio
AAUAAUUCCCUAAUGCUUGAUAAAAUCAUUGGUGAAAAAAGGAGGCGAAUACAGAUCACAAUAUUAUCAUACCACUCUUCAAUUGGAGUAAGAAAAGAUGAACUAGUUCAUGGGUAUAUA	0.18 ratio
UACCAGUCAUAUAAUCAGUAUCCUAAUGGGUCAGCCAAUGGCUUUGGUGCAGUUAGAAACUUUAGCCCCACUGACUAUUAUCAUUCAGAAAUUCCAAACACAAGACCACAUGAAAUUCUG	0.42 ratio

Block 3
Target: TAR DNA-binding protein 43, full length, His tag (TARDBP, Homo sapiens, UniProt Q13148, residues 1-414)
Technique: RNA Bind-n-Seq
Molecule type: RNA
Sample: in vitro
Tested at: 20 nM
Notes: 6-mer, flanks averaged, single round
Added: 150 mM LiCl
Baseline: input library
Reading: higher = stronger binding
Oligonucleotide	6-mer enrichment (R)
AGCCCG	0.927
UGGUAC	0.953
GGGAGC	1.14
UUCACG	0.856
GCGAUG	1.02
ACGUUG	0.947
UCACUC	0.848
AAGUAC	0.831

Block 4
Structure (SMILES): Cc1noc([C@H]2C[C@@H](c3ccc(C(F)(F)F)cc3)CN(C(=O)N3CCS(=O)(=O)C3)C2)n1
Effect on: cell-free assay
Technique: competition with immobilised ligand
Tested at: 1 µM
target	remaining binding [%]
GRK1 (Homo sapiens, UniProt Q15835)	82
MAP4K5 (Homo sapiens, UniProt Q9Y4K4)	100
MYLK (Homo sapiens, UniProt Q15746)	87
RIOK1 (Homo sapiens, UniProt Q9BRS2)	100
CIT (Homo sapiens, UniProt O14578)	98
eIF-2-alpha kinase GCN2, C-terminal kinase domain (EIF2AK4, Homo sapiens, UniProt Q9P2K8, S808G)	28
KIT (Homo sapiens, UniProt P10721, A829P)	100
MAP3K20 (Homo sapiens, UniProt Q9NYL2)	87
NTRK2 (Homo sapiens, UniProt Q16620)	83
PLK4 (Homo sapiens, UniProt O00444)	88
LRRK2 (Homo sapiens, UniProt Q5S007)	65
ULK2 (Homo sapiens, UniProt Q8IYT8)	100
Ribosomal protein S6 kinase alpha-4, C-terminal kinase domain (RPS6KA4, Homo sapiens, UniProt O75676)	100
MET (Homo sapiens, UniProt P08581)	100
HIPK2 (Homo sapiens, UniProt Q9H2X6)	100
PLK2 (Homo sapiens, UniProt Q9NYY3)	100
PIP5K1C (Homo sapiens, UniProt O60331)	100
KIT (Homo sapiens, UniProt P10721)	100
Tyrosine-protein kinase ABL1, phosphorylated (ABL1, Homo sapiens, UniProt P00519, Q252H)	100
MAP3K11 (Homo sapiens, UniProt Q16584)	86
DDR1 (Homo sapiens, UniProt Q08345)	100
KIT (Homo sapiens, UniProt P10721, V559D/V654A)	100
PIK3C2G (Homo sapiens, UniProt O75747)	90
MAPK8 (Homo sapiens, UniProt P45983)	77
PRKCD (Homo sapiens, UniProt Q05655)	100

Excerpt of the above (block 1):
Structure (SMILES)	remaining activity [%]
O=C(Nc1cccc(Nc2cc(Nc3cccc(C(F)(F)F)c3)ncn2)c1)C1CC1	94.8
COc1ccc(C(=O)Nc2sc3c(c2C(N)=O)CCCC3)cc1OC	104
CC(C)[C@H](CO)Nc1nc(Nc2cc(N)cc(Cl)c2)c2ncn(C(C)C)c2n1	31.9
Cc1ccc(Nc2nccc(N(C)c3ccc4c(C)n(C)nc4c3)n2)cc1S(N)(=O)=O	93.5
Cc1nc(-c2ccccc2)c(-c2ccncc2)o1	98.1
